{"data": "Assay results collected from several papers", "note": "Numbered parts are unrelated; each lists some results of a single study. Values joined by “and” are separate records of one study, mostly repeats; a detail may differ.", "sequence of UniProt P07949 (whole entry, looked up)": "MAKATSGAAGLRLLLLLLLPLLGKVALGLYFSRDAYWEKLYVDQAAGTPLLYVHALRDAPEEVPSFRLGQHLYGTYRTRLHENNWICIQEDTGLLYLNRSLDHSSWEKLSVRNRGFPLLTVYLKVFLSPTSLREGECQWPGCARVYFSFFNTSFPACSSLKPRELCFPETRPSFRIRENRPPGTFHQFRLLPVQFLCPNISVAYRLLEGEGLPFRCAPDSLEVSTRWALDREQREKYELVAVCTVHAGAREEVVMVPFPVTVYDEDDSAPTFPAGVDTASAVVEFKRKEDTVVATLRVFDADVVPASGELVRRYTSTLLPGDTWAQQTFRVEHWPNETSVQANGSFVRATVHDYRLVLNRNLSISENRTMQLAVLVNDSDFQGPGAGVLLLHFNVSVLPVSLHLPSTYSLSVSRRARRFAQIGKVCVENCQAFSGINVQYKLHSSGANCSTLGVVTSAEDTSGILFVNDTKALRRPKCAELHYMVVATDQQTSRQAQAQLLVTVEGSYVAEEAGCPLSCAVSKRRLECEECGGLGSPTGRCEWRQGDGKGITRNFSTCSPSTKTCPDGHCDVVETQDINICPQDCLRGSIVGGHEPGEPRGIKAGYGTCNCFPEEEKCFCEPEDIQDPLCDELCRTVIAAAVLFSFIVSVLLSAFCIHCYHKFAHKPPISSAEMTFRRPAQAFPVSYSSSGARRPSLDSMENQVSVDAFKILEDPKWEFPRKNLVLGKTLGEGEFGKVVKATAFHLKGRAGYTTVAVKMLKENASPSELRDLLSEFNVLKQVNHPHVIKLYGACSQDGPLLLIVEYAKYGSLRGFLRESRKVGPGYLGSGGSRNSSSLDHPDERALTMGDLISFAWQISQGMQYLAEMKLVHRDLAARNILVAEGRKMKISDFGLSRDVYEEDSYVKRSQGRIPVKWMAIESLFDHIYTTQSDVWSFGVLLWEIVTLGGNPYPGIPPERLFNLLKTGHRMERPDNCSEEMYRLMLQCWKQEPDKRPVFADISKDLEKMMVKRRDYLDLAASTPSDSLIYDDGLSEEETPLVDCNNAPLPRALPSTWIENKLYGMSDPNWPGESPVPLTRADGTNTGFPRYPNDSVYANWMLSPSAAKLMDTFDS", "sequence of UniProt P07947 (whole entry, looked up)": "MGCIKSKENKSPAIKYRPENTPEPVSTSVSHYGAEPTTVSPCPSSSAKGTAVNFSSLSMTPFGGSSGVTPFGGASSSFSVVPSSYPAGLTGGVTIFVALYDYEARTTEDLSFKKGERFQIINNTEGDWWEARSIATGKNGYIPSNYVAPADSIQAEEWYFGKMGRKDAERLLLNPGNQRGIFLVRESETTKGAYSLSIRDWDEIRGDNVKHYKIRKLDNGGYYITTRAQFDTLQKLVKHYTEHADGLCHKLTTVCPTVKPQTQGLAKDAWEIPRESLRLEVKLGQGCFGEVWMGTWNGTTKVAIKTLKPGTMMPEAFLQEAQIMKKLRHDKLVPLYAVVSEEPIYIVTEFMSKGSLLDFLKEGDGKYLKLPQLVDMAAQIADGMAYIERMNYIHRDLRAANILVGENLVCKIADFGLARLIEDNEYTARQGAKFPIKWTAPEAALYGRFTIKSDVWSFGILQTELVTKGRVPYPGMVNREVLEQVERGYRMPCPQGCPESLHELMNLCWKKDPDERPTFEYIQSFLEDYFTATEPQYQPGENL", "sequence of UniProt Q13131 (whole entry, looked up)": "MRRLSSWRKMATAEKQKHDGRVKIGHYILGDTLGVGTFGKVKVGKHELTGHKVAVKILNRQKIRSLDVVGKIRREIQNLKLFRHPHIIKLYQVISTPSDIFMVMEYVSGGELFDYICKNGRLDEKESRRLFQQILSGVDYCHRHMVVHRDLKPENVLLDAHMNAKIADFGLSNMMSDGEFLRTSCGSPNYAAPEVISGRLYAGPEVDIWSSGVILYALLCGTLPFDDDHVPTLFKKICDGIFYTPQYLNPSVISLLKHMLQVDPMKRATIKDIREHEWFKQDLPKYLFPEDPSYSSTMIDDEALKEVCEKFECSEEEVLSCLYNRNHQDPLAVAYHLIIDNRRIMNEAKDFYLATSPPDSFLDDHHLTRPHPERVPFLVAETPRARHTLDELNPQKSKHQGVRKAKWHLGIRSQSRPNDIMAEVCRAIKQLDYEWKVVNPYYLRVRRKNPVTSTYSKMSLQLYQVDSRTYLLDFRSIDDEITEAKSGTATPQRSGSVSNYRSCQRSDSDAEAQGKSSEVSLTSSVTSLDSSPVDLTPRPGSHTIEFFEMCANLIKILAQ", "sequence of UniProt Q8TD19 (whole entry, looked up)": "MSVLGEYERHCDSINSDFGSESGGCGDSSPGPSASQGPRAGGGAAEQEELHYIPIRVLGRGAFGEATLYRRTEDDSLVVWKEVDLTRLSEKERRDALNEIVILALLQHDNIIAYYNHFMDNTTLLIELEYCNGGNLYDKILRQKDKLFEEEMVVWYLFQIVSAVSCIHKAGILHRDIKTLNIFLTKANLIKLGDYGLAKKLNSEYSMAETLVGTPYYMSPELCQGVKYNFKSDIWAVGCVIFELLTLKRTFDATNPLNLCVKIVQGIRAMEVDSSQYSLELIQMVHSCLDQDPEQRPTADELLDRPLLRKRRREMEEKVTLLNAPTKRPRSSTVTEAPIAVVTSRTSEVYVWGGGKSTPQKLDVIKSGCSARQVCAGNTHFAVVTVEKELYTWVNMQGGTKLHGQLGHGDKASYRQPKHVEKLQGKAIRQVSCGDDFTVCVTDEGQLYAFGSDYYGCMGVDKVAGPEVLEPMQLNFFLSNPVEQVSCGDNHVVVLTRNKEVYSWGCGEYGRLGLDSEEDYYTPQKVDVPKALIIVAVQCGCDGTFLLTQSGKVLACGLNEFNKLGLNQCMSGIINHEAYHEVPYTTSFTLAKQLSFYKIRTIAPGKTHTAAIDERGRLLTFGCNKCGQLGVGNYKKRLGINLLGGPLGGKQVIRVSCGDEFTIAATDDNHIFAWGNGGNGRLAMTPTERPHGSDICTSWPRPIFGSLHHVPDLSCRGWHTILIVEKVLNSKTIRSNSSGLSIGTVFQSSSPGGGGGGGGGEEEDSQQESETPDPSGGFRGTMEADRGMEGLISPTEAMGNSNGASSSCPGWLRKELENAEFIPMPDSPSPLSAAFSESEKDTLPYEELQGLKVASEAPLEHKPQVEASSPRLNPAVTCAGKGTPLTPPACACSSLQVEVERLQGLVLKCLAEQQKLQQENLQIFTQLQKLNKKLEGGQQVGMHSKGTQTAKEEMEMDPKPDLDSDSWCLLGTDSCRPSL", "sequence of UniProt Q9UEE5 (whole entry, looked up)": "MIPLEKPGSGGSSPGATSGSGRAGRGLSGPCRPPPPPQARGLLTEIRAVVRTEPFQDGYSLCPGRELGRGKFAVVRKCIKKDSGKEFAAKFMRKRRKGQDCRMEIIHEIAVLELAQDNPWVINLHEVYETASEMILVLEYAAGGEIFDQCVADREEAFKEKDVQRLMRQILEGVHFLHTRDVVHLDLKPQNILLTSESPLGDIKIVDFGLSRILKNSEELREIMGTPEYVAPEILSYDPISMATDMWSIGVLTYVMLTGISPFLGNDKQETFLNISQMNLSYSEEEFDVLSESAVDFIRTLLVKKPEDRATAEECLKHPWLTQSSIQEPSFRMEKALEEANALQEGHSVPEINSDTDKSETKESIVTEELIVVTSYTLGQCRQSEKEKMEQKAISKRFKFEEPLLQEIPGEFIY", "sequence of UniProt Q9P289 (whole entry, looked up)": "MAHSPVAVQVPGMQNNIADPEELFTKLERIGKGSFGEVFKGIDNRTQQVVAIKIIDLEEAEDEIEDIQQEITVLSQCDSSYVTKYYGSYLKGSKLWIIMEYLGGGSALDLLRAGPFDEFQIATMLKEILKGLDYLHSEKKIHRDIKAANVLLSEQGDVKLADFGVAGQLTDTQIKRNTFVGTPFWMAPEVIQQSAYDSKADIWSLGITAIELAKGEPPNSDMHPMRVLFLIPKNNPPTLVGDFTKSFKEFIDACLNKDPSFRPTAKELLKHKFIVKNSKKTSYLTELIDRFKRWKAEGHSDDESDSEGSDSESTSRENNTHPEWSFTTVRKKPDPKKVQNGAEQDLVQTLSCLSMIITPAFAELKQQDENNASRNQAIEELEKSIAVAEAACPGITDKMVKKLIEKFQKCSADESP", "sequence of UniProt Q06418 (whole entry, looked up)": "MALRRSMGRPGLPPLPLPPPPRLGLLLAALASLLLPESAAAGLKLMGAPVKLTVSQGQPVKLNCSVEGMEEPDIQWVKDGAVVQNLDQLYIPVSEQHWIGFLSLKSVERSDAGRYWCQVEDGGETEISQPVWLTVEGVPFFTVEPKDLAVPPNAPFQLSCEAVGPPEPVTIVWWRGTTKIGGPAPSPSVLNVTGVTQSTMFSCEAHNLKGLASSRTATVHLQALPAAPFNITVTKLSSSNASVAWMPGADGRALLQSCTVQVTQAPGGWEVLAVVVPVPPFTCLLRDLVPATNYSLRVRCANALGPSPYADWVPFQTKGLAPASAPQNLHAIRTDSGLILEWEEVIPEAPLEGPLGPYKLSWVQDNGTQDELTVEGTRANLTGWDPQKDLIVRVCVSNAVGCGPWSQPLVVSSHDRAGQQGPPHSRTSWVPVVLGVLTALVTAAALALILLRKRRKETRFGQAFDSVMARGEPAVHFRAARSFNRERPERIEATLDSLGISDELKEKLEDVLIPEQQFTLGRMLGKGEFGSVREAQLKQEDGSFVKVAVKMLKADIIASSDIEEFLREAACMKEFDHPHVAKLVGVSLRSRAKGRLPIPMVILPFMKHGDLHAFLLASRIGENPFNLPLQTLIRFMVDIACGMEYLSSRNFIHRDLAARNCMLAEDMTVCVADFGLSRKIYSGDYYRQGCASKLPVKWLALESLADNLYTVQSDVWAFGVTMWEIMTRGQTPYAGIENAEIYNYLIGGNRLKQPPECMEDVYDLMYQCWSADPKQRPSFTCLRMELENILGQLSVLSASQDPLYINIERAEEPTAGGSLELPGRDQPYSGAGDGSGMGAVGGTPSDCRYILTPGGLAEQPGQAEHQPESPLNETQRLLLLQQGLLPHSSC"}
{"data": "Set 1", "Compound": "COc1ccc(-c2c(Nc3ccccn3)[nH]c3c(C4=CCCCC4)c(-c4ccccc4)nn3c2=O)cc1", "matrix": "plasma", "route": "oral"}
{"test system": "human", "setting": "100 mg once daily, 2 h, cycle 1", "geometric mean plasma concentration [ng/mL]": 3300}
{"test": "refers to: S-adenosylmethionine", "test system": "human patients", "setting": "400 mg once daily, 8 h, cycle 1", "geometric mean plasma concentration [ng/mL]": 18.5}
{"test": "refers to: S-adenosylmethionine", "test system": "human patients", "setting": "400 mg once daily, 2 h, cycle 1", "geometric mean plasma concentration [ng/mL]": 17.6}
{"test": "refers to: S-adenosylmethionine", "test system": "human patients", "setting": "400 mg once daily, 6 h, cycle 1", "geometric mean plasma concentration [ng/mL]": 18.4}
{"data": "Set 2", "cell line": "A-375", "concentration": "100 µM", "time": "36 h"}
{"SMILES": "O=C(O)[C@H](O)[C@@H](O)[C@H](O)[C@H](O)CO", "viability [%]": 99.8}
{"SMILES": "O=C(O)CCC(=O)Nc1ccc(S(=O)(=O)Nc2nccs2)cc1", "viability [%]": 117}
{"SMILES": "CC[C@H]1[C@@H](O)[C@@H]2[C@H](CC[C@]3(C)[C@@H]([C@H](C)CCC(=O)O)CC[C@@H]23)[C@@]2(C)CC[C@@H](O)C[C@@H]12", "viability [%]": 39.8}
{"SMILES": "N=C(N)NC(=O)Cc1c(Cl)cccc1Cl", "viability [%]": 88.4}
{"SMILES": "Cc1ccc(C)c(OCCCC(C)(C)C(=O)O)c1", "viability [%]": 102}
{"SMILES": "Fc1ccc([C@@H]2CCNC[C@H]2COc2ccc3c(c2)OCO3)cc1", "viability [%]": 1.39}
{"data": "Set 3", "SMILES": "Cc1cncc2cccc(S(=O)(=O)N3CCCN(C(=O)CN)C[C@@H]3C)c12", "observed": "enzyme activity", "mode": "inhibitor", "concentration": "0.5 µM", "baseline": "control"}
{"target": "RET (Homo sapiens, UniProt P07949)", "remaining activity": "94.4%"}
{"target": "CDK7 (Homo sapiens, UniProt P50613)", "remaining activity": "98%"}
{"target": "ROCK2 (Homo sapiens, UniProt O75116)", "remaining activity": "3.22%"}
{"target": "NEK9 (Homo sapiens, UniProt Q8TD19)", "remaining activity": "98.6%"}
{"target": "MAPK10 (Homo sapiens, UniProt P53779)", "remaining activity": "103%"}
{"target": "PTK2B (Homo sapiens, UniProt Q14289)", "remaining activity": "92.5%"}
{"target": "PKN2 (Homo sapiens, UniProt Q16513)", "remaining activity": "74.7%"}
{"target": "EGFR (Homo sapiens, UniProt P00533)", "remaining activity": "98.7%"}
{"data": "Set 4", "target": "Diamine acetyltransferase 1 (Homo sapiens, UniProt P21673)", "mode": "inhibitor", "concentration": "10 µM", "baseline": "control", "Residues (P21673 1-171)": "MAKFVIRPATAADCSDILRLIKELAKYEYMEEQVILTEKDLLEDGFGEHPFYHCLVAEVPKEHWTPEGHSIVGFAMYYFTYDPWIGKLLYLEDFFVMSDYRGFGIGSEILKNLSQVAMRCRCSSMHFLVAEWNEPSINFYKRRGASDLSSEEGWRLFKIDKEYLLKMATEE"}
{"SMILES": "COc1cc(O)c2c(=O)c(OC)c(-c3ccc(OC)c(OC)c3)oc2c1", "remaining activity [%]": 96.4}
{"SMILES": "O=C(CCCCCCCCc1ccccc1)c1c(O)cccc1O", "remaining activity [%]": 106}
{"SMILES": "CCCCCCCCCCCCCCCCCCCCCCO", "remaining activity [%]": 93.6}
{"SMILES": "CC12CC3OC4O[C@H](CO)[C@@H](O)[C@H](O)[C@H]4OC34CC1C4(COC(=O)c1ccccc1)C(=O)O2 (stereo partly shown)", "remaining activity [%]": 79}
{"data": "Set 5", "Structure (SMILES)": "O=C(NCCCC1CCCCC1)c1ccc(CNC(=O)c2cnn(-c3ccccc3)c2C(F)(F)F)cc1", "observed": "cell-free assay", "technique": "competition with immobilised ligand", "concentration": "0.1 µM"}
{"target": "STK17A (Homo sapiens, UniProt Q9UEE5)", "remaining binding [%]": 100}
{"target": "FYN (Homo sapiens, UniProt P06241)", "remaining binding [%]": 86}
{"target": "STK26 (Homo sapiens, UniProt Q9P289)", "remaining binding [%]": 93}
{"target": "MATK (Homo sapiens, UniProt P42679)", "remaining binding [%]": 100}
{"target": "MYLK3 (Homo sapiens, UniProt Q32MK0)", "remaining binding [%]": 92}
{"target": "FRK (Homo sapiens, UniProt P42685)", "remaining binding [%]": 77}
{"target": "NUAK1 (Homo sapiens, UniProt O60285)", "remaining binding [%]": 100}
{"target": "EPHB4 (Homo sapiens, UniProt P54760)", "remaining binding [%]": 95}
{"target": "MAP3K9 (Homo sapiens, UniProt P80192)", "remaining binding [%]": 100}
{"target": "EGFR (Homo sapiens, UniProt P00533, del752-759)", "remaining binding [%]": 99}
{"target": "Non-receptor tyrosine-protein kinase TYK2, JH1 (TYK2, Homo sapiens, UniProt P29597)", "remaining binding [%]": 100}
{"target": "RET (Homo sapiens, UniProt P07949)", "remaining binding [%]": 89}
{"target": "LYN (Homo sapiens, UniProt P07948)", "remaining binding [%]": 100}
{"target": "Ribosomal protein S6 kinase alpha-2, N-terminal kinase domain (RPS6KA2, Homo sapiens, UniProt Q15349)", "remaining binding [%]": 100}
{"target": "TYRO3 (Homo sapiens, UniProt Q06418)", "remaining binding [%]": 100}
{"target": "PLK2 (Homo sapiens, UniProt Q9NYY3)", "remaining binding [%]": 100}
{"target": "YES1 (Homo sapiens, UniProt P07947)", "remaining binding [%]": 100}
{"target": "PAK1 (Homo sapiens, UniProt Q13153)", "remaining binding [%]": 92}
{"target": "PRKAA1 (Homo sapiens, UniProt Q13131)", "remaining binding [%]": 100}
{"target": "DSTYK (Homo sapiens, UniProt Q6XUX3)", "remaining binding [%]": 100}
{"data": "Other studies, line by line"}
{"SMILES": "CC(=O)N[C@@H](Cc1c[nH]c2ccccc12)C(=O)N[C@@H](CCC(=O)C=[N+]=[N-])C(=O)OC(C)C", "test": "UPLC-MS/MS", "test system": "EL4 tumor, C57BL/6 CES1-/- mice, tumor", "setting": "subcutaneous, 0.3 mg/kg DON equivalent daily, 5 days", "scale": "higher = more metabolite", "endpoint": "pseudouridine level", "value": "382000 a.u. and 273000 a.u. and 206000 a.u. and 258000 a.u. and 430000 a.u. and 274000 a.u."}
